Assay results of several laboratories.
Each numbered part is a random draw from the data of one study; scales do not carry over between parts.
Sequence of UniProt Q9NWZ3 (whole entry, looked up): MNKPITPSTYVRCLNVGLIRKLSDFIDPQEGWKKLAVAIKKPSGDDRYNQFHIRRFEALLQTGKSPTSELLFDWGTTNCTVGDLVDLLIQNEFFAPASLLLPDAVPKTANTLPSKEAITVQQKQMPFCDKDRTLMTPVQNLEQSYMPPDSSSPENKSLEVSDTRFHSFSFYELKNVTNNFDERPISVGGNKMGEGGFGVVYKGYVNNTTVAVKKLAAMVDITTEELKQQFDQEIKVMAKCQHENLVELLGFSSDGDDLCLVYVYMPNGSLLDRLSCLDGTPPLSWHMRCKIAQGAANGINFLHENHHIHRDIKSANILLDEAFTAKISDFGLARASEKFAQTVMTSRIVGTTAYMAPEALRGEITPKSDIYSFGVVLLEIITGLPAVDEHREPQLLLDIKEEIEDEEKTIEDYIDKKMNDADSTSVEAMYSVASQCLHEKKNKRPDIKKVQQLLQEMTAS
Sequence of UniProt Q9UIK4 (whole entry, looked up): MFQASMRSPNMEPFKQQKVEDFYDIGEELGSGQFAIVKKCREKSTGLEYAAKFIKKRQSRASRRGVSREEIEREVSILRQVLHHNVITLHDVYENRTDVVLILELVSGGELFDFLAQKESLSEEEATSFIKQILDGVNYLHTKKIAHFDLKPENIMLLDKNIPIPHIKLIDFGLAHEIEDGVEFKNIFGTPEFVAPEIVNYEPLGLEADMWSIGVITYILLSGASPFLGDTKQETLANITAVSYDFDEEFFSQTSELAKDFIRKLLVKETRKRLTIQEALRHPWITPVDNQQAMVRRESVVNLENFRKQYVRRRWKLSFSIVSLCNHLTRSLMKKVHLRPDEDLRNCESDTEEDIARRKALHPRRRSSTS
Sequence of UniProt P29320 (whole entry, looked up): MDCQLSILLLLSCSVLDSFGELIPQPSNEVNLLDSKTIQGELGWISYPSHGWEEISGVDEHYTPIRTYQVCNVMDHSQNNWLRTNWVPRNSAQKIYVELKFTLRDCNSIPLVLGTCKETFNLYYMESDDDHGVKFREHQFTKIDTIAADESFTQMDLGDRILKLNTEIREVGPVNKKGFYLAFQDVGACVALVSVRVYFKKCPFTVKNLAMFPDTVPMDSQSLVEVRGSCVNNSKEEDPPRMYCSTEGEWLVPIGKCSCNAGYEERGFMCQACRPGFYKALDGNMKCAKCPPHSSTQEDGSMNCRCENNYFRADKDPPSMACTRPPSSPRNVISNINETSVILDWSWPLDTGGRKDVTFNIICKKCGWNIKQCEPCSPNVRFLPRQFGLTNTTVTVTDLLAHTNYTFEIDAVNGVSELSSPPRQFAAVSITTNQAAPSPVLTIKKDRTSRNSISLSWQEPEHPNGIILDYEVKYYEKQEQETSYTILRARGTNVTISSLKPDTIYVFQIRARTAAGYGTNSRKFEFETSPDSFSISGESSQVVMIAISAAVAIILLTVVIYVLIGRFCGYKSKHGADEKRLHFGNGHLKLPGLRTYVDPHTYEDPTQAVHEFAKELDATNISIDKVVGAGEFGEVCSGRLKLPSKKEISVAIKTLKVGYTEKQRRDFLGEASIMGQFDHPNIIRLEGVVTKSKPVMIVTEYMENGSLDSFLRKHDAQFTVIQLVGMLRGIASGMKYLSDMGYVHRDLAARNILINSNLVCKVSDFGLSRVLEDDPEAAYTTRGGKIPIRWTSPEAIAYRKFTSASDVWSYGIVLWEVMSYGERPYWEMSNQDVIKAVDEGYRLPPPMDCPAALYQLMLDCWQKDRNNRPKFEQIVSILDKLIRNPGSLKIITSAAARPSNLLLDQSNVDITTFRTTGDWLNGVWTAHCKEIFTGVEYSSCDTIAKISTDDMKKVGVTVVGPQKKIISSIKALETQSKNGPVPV
Sequence of UniProt Q9Y2U5 (whole entry, looked up): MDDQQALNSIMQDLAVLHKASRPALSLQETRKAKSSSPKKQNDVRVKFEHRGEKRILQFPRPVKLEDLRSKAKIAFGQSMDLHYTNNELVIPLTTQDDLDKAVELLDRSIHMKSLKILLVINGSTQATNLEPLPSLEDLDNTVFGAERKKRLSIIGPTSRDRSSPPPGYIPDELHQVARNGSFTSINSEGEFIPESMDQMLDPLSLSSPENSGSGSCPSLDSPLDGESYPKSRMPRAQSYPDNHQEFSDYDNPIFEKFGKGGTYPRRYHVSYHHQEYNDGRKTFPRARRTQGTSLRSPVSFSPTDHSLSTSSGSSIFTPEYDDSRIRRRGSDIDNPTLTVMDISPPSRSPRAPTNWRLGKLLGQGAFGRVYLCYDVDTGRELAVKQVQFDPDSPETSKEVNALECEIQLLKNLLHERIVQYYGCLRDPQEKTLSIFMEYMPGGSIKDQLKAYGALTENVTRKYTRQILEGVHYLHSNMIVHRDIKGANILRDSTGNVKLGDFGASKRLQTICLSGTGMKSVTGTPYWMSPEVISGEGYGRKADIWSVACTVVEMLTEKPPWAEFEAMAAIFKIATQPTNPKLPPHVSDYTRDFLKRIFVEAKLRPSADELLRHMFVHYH
Sequence of UniProt Q9NR20 (whole entry, looked up): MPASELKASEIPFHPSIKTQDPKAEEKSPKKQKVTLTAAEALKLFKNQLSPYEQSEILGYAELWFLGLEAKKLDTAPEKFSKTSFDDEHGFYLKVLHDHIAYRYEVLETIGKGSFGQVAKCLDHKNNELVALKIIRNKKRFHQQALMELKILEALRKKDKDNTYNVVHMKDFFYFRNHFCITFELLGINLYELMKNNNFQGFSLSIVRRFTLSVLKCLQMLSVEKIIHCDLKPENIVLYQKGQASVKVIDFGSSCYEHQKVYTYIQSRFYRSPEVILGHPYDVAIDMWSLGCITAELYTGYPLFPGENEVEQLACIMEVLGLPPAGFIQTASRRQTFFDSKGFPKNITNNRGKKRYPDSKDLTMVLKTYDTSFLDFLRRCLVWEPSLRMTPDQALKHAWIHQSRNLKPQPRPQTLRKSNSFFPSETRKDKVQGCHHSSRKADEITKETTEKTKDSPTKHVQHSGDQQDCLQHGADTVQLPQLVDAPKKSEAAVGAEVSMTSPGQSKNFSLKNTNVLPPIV
Sequence of UniProt Q9H2G2 (whole entry, looked up): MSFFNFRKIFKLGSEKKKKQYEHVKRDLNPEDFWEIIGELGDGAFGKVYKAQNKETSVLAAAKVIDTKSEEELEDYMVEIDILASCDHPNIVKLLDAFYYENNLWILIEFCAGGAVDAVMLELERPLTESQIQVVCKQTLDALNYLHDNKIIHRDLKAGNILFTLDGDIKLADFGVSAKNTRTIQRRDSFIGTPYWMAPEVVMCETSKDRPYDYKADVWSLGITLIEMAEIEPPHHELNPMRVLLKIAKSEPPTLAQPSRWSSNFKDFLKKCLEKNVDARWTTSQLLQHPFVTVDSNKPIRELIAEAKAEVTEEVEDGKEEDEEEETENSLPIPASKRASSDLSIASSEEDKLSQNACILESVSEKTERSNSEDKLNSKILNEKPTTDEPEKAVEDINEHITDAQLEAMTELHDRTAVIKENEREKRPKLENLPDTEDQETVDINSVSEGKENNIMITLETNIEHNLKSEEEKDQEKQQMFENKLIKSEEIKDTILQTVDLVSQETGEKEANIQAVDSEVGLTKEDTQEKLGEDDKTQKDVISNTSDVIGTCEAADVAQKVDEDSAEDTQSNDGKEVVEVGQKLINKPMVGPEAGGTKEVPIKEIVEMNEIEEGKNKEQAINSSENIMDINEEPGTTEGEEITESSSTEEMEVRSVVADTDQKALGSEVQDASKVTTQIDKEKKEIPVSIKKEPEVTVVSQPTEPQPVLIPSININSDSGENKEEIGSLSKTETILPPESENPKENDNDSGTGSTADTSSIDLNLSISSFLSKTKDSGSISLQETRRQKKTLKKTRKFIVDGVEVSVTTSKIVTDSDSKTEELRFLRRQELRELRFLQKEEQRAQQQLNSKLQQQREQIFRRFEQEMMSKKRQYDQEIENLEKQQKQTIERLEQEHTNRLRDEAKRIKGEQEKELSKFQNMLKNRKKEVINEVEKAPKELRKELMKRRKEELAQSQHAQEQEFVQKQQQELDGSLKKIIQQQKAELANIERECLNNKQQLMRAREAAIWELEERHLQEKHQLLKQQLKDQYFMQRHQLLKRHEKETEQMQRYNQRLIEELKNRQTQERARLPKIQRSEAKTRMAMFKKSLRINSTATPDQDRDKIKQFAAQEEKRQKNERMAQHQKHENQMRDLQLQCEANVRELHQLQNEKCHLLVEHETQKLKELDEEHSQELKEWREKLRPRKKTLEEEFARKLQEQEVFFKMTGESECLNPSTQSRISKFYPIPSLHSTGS
Sequence of UniProt P19784 (whole entry, looked up): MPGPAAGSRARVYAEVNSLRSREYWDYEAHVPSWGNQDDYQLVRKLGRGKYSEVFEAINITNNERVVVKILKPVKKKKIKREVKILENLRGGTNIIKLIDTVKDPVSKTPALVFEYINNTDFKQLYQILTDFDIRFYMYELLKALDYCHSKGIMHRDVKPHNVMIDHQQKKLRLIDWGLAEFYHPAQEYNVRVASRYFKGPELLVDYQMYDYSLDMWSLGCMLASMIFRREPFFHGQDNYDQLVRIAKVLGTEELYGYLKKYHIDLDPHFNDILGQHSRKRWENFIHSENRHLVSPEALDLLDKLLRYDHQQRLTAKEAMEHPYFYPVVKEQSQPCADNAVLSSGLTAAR
Sequence of UniProt Q00536 (whole entry, looked up): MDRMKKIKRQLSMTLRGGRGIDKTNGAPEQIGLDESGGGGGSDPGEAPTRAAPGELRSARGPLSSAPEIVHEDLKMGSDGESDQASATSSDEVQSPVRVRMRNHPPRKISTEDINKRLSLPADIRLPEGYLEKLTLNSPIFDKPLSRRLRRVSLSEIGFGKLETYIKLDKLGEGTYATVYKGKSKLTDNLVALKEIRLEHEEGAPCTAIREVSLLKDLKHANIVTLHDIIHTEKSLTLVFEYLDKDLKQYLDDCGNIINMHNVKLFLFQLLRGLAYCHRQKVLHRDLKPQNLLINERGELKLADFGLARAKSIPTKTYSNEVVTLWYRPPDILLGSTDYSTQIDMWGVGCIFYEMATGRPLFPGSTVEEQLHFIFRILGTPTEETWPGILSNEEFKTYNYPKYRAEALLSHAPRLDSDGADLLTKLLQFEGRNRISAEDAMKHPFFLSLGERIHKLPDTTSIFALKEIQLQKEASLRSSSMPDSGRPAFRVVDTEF

Block 1
Cell line: A-375
Concentration: 100 µM
Time: 36 h
| SMILES | viability [%] |
| --- | --- |
| CCc1cc2c(cc1N1CCC(N3CCOCC3)CC1)C(C)(C)c1[nH]c3cc(C#N)ccc3c1C2=O | 4.63 |
| COc1ccc(-c2nc3ccc(C4=NNC(=O)CC4C)cc3[nH]2)cc1 (centres unmarked) | 32.2 |
| CNNCc1ccc(C(=O)NC(C)C)cc1 | 105 |

Block 2
Structure (SMILES): Cc1cncc2cccc(S(=O)(=O)N3CCCN(C(=O)CN)C[C@@H]3C)c12
Effect on: enzyme activity
Action: inhibitor
Concentration: 0.5 µM
Relative to: control
| target | remaining activity |
| --- | --- |
| STE20-like serine/threonine-protein kinase (SLK, Homo sapiens, UniProt Q9H2G2) | 90.4% |
| Serine/threonine-protein kinase BRSK1 (BRSK1, Homo sapiens, UniProt Q8TDC3) | 94.2% |
| Mitogen-activated protein kinase kinase kinase 2 (MAP3K2, Homo sapiens, UniProt Q9Y2U5) | 92.1% |
| G protein-coupled receptor kinase 5 (GRK5, Homo sapiens, UniProt P34947) | 97.1% |
| Calcium/calmodulin-dependent protein kinase type 1G (CAMK1G, Homo sapiens, UniProt Q96NX5) | 94.6% |
| Homeodomain-interacting protein kinase 3 (HIPK3, Homo sapiens, UniProt Q9H422) | 105% |
| Dual specificity tyrosine-phosphorylation-regulated kinase 4 (DYRK4, Homo sapiens, UniProt Q9NR20) | 90.3% |
| Myotonin-protein kinase (DMPK, Homo sapiens, UniProt Q09013) | 105% |
| Aurora kinase A (AURKA, Homo sapiens, UniProt O14965) | 64.7% |
| NT-3 growth factor receptor (NTRK3, Homo sapiens, UniProt Q16288) | 87.5% |
| Calcium/calmodulin-dependent protein kinase type 1D (CAMK1D, Homo sapiens, UniProt Q8IU85) | 104% |
| Casein kinase II subunit alpha' (CSNK2A2, Homo sapiens, UniProt P19784) | 99.3% |
| Cyclin-dependent kinase 2, with cyclin A (CDK2, Homo sapiens, UniProt P24941) | 98.4% |
| Serine/threonine-protein kinase D1 (PRKD1, Homo sapiens, UniProt Q15139) | 96.7% |

Block 3
SMILES: CCCOc1ccc([C@@H]2[C@@H](C(=O)O)[C@H](c3ccc4c(c3)OCO4)CN2CC(=O)Nc2c(CC)cccc2CC)cc1
Effect on: cell-free assay
Technique: competition with immobilised ligand
Concentration: 1 µM
| target | remaining binding [%] |
| --- | --- |
| cAMP-dependent protein kinase catalytic subunit beta (PRKACB, Homo sapiens, UniProt P22694) | 100 |
| TRAF2 and NCK-interacting protein kinase (TNIK, Homo sapiens, UniProt Q9UKE5) | 100 |
| Death-associated protein kinase 2 (DAPK2, Homo sapiens, UniProt Q9UIK4) | 80 |
| Mast/stem cell growth factor receptor Kit, autoinhibited (KIT, Homo sapiens, UniProt P10721) | 82 |
| Cyclin-dependent kinase 16 (CDK16, Homo sapiens, UniProt Q00536) | 89 |
| Tyrosine-protein kinase ABL1, non-phosphorylated (ABL1, Homo sapiens, UniProt P00519, Q252H) | 92 |
| Phosphatidylinositol 5-phosphate 4-kinase type-2 beta (PIP4K2B, Homo sapiens, UniProt P78356) | 80 |
| cAMP-dependent protein kinase catalytic subunit alpha (PRKACA, Homo sapiens, UniProt P17612) | 100 |
| Ephrin type-A receptor 3 (EPHA3, Homo sapiens, UniProt P29320) | 99 |
| Interleukin-1 receptor-associated kinase 4 (IRAK4, Homo sapiens, UniProt Q9NWZ3) | 100 |
| Mitogen-activated protein kinase 10 (MAPK10, Homo sapiens, UniProt P53779) | 95 |
| Tyrosine-protein kinase ABL1, phosphorylated (ABL1, Homo sapiens, UniProt P00519, F317L) | 81 |

Block 4
Species: mouse
Matrix: microsomes or S9
Concentration: 2 µM
Time: 0.5 h
| SMILES | remaining compound [%] |
| --- | --- |
| O=C(Nc1ccc2[nH]ncc2c1)c1csc2ccccc12 | 10.1 |
| COc1cc(=O)[nH]cc1C(=O)N1CCCC1c1cn(C)nc1C (centres unmarked) | 59.8 |
| Cc1nc(C)n(C(C)CNC(=O)CN2C(=O)COc3ccc(C(C)(C)C)cc32)n1 (centres unmarked) | 93.1 |
| Cc1nccn1S(=O)(=O)c1ccc(C(C)(C)C)cc1 | 17.8 |
| COCCOc1cc(=O)n2c(c1C(=O)N1CCC(Cc3ccccc3)CC1)CCOCC2 | 38.6 |
| CCOc1cccc2c1OC1(CCN(CC)CC1)N1N=C(c3ccccc3)CC21 (centres unmarked) | 0.687 |

Excerpt of the above (block 3):
| target | remaining binding [%] |
| --- | --- |
| cAMP-dependent protein kinase catalytic subunit alpha (PRKACA, Homo sapiens, UniProt P17612) | 100 |
| Ephrin type-A receptor 3 (EPHA3, Homo sapiens, UniProt P29320) | 99 |
